Experimental data gathered from unrelated publications.
A part holds a random share of what one study measured. Changes are numbered by the printed parent chain.

Block 1 — technique: RNA Bind-n-Seq; form: RNA; matrix: in vitro; tested at: 365 nM; reference: no-protein control; reading: higher = stronger binding
Target: RNA binding protein fox-1 homolog 2, RRM domain, GST-SBP tag (RBFOX2, Homo sapiens, UniProt O43251-10, residues 100-194)
Setting: natural RNA segment, single round, ends assumed
Shared flanks, not repeated: GGGAGUUCUACAGUCCGACGAUC … UGGAAUUCUCGGGUGCCAA
Construct (chain): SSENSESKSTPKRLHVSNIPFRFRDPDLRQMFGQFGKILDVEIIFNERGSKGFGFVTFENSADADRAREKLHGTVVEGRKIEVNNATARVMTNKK
Sequence | RBNS enrichment (R)
AUCCUCCUGUCUAAUUUGCACCUUUGUCUGGAUGCACACUUCUGACCUUGCUGCCACAACCUGUGGGGUCUGAUGUGUCCCUUGAUGGGUGCUGCCCUCAGGGACUGCAC | 0.221
CCUGGACUCUGCCUUAGCUCCCACCUCUCAGCCUUGUUAUUGGGUUUCAUGCCCCUGGACCAGCCUUAUCUCAGACCUGCUUACCUGCAUGAUGCCUUUUUGGGGGCUGG | 5.74
CAGAGGGCGGGGCACACCUCAGUUUUCUAUCACCUUCCUACCAGAGGGGAAAGUAACCUGAACUUUAAUGUCUUUUGGAACAAAACCAAAGUUUAAGAUUUGCCAUAUGA | 0.555
CACUCUUACAGGCACUUUAUAUUUCUUGCUGUAACUACAGCAAUCACAUACAGUACAGACAACCUCAAAAAUCUGUUUAUAUUAGUGUAAAUAGAAAAAUGGUAGACCGC | 0.286
AGCCCAGGAAGCUGGCCCAGGCCUGCUCCUCUGUGUUUCCCCAUGGGCAGCGAUAGAGGCCAAGUAUCUUGUGGGCACUCCUGCCUAACCCUGCAUUGGGAUAUCGAAGC | 0.509
GGAGGACAGCUAAAUGGACAGUCAGUCACUUUGAGGUCACUGCAUUUGACUGGAAAUGUAUAAUGUGUUUUACUGUUGAAAAAAAUAUGAGCUCUGUUUCAACUAACGUG | 0.855
UUUUGGCCUGUAAGACACUUUAGAGAUUCCUAACAGAGUUUACUGUUGUUUAGAAAUUUGCAAGGGCUUUUUUUCAGCAAUGCCACCAGCAGAUUAUAAUCUUGUCAACA | 0.584
CUGCGGCUGUGGCAGCCUCCAUCUCCAGCAAGUCUCCUGGCCUCUCCUCCUCAUCCUCUUCAUCCUCAUCCUCCUCCUCCUCCACUUGCAGCGAGACGGCAGCACAGACC | 1.22
UUUUUUUUUUUGUACCUUUCUGGGAUUUUAAUUCUUGCUAGUUACCGAUGUAUGAUGUGAAAAGGAAACAGAUGAUGAUGUGUAUAAUAAAAUUGUUACCAUUCACUCAG | 0.786
GGCUGUUCCUCUAUCAGCGAAGACUGGAGACCAACAAACAUUACACAGCUAGCUCUAUAUUCUCUCUGUGGAGUCCCAACACAUGGAGCUCAACUACACAAUAUAAGGCA | 0.35
UCAGACCUCAAGGGGUAAACUGGACCCACCGGGGAAAGAAAGGGAAGAGGGGAGACCUCUUCUACGACCCCUCCCACUCGGGCCCGAGUAGGGCCUGGGACCCCGAAUGU | 0.31
AUGUUGUGUGGGACCUGGACCGCCCUCUGGAAGAAGAUUGUACCUUGGAGCUUCUCAAGUUUGAGGAUGAGGAAGCUCAGGCAGUGUAUUGGCACUCUAGUGCUCACAUA | 1.6

Block 2 — technique: protein-binding microarray; form: double-stranded DNA, one strand shown; matrix: in vitro; tested at: 2540 nM top; setting: 60-bp whole probe; with: salmon DNA 0.4 mg/ml; reference: random background probes; reading: higher = stronger binding; shared flanks, not repeated: GCCTAGCAC … GTCTTGATTCGCTTGACGCTGCTG
Target: Interferon regulatory factor 3, full length, phosphomimetic (IRF3, Homo sapiens, UniProt Q14653, residues 1-427, S386D/S396D/S398D/S402D/T404D/S405D)
Residues (chain): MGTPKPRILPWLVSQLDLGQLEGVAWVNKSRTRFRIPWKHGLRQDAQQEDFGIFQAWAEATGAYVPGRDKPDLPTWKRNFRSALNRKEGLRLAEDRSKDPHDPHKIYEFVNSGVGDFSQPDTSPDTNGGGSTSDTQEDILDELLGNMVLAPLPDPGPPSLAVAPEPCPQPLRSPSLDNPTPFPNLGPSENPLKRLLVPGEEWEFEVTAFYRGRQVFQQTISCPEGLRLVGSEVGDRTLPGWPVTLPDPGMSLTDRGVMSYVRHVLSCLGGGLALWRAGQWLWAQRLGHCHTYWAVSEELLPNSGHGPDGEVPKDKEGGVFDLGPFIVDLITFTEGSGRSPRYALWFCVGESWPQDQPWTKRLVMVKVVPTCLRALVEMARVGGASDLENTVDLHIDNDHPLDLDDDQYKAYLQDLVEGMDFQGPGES
Sequence | fitted relative affinity [z-score]
TTAGGTTTCGCGTTTCGGTTAGTGCTA | 4.15
TTAGAAATCAGTCTCGATTAGTGCTAG | 0.781
CACGGACTGGGGTATCGGGACGTGCTA | -0.574
TTGTCTCTGTCCCTGTTTCTGTGCTAG | 0.656
GACGAACTGAGGTTCGAGACGTGCTAG | -0.257
TTAGGTATCGGCATCGGTTAGTGCTAG | 0.658
GACGGATTCCTTTCCCTGACGTGCTAG | 5.17
GACGATAACAGACTGGAGACGTGCTAG | -0.315
GTCGGACTGGGGTATCGGGACGTGCTA | -0.309
TAGTTTTTACTTTCTGAATGGTGCTAG | 3.83
CACGATTCCAGTTTCGAGACGTGCTAG | 2.95
TTAGGTCTCCTTCTCCTTAAGTGCTAG | 4.53
GACGGTTTTCTTTTCCTGACGTGCTAG | 5.33
TTAGGCCTCGGTATCGGTTAGTGCTAG | 0.796
GACGGACTGGCTTTCGGGACGTGCTAG | -0.209
GACGATATCAGTCACGAGACGTGCTAG | 0.135
TTAGGTGTCGGTATCGGTTAGTGCTAG | 3.85
TGAGGACTGGGACTGGGTTAGTGCTAG | -1.33
GACGGACTGGACACTCGGGACGTGCTA | -0.666
TCATCTCTGCCACTCAGACTGTGCTAG | 0.577
CTCCCCCTCCCCCTCAGATCGTGCTAG | 0.139
TTCGATTTCAGACTGGATTAGTGCTAG | 1.16
GAGGGTATCCTTCTCCTGACGTGCTAG | 5.63
GACGGACTGCTGTTCCTGACGTGCTAG | -0.196
TTAGATATCGGGACTGAATTAGTGCTA | 0.197

Block 3 — technique: RNA Bind-n-Seq; form: RNA; matrix: in vitro; tested at: 200 nM; setting: whole 134-nt RNA, ends assumed; with: 150 mM KCl; reference: input library; reading: higher = stronger binding
Target: Ras GTPase-activating protein-binding protein 1, full length (G3BP1, Homo sapiens, UniProt Q13283)
UniProt Q13283, sequence (whole entry, looked up): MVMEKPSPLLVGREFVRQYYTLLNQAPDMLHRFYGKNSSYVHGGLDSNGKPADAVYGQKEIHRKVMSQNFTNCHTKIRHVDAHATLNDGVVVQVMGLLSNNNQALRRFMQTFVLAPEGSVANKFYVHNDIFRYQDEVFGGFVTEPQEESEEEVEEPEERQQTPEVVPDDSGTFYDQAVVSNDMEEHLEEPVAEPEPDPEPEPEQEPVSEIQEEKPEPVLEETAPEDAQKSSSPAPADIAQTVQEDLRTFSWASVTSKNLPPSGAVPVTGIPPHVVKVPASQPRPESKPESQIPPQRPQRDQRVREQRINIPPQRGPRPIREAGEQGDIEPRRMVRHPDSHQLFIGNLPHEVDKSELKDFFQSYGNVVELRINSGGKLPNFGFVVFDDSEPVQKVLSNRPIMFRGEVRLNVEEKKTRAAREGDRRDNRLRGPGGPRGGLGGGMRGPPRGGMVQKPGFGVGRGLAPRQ
Shared flanks, not repeated: GGGAGUUCUACAGUCCGACGAUC … UGGAAUUCUCGGGUGUCAAGG
Sequence | log2 enrichment
UGGCUCUGGUGGCAUGCGGGGAGGAAGAGGUGGCCUCAUGGAUCGUGGUGGUCCCGGUGGAAUGUUCAGAGGUGGCCGUGGUGGAGACAG | 0.497
UCCUCAAGUCCUGUGCUACACAUCGUAUGUACCGAAUCGGCCGGCCGGCCGGAAAGUAUUAUGUUACGCCGUUCGGAUCUGCACUUCCAG | 1.4
CACAGACAACACGCACCCACACAGACACAGAGGGAAGGGGUUGGGAUGGGGACAGGGUGCACAACAGGGCGGGGUAGGACCCCAGCCCCU | 1.94
GAAAUACCAUCGGAAGACGAUGGGACGGUGCUGCUCUCCACGGUUACAGCCCAGUUUCCAGGGGCGUGUGGGCUUCGCUACAGGAAUCCA | -1.17
CUCAAGUCCUGUGCUACACAUCGUAUGUACCGAAUCGGGGUUGGUUGGUUGGGGAAAGUAUUAUGUUACGCCGUUCGGAUCUGCACUUCC | 0.0978
UACUCAGCACAGAAAUUCAGGAGACACAGACAAGUUCUUCCACGAUGUCGUACAGACGAGAACUAGAGAAAUACCGUGACCUGGAUGAAG | 0.745
CUCAAGUCCUGUGCUACACAUCGUAUGUACCGAAUCGGAGGAAAGGUUUUUGGAAAGUAUUAUGUUACGCCGUUCGGAUCUGCACUUCCA | -0.62
CCUGUGCUACACAUCGUAUGUACCGAAUCGGGCCCCCCCGGGGCCCCCCCGGCCCCCCCGGAAAGUAUUAUGUUACGCCGUUCGGAUCUG | -0.283
GUCCUGUGCUACACAUCGUAUGUACCGAAUCGGGAAAAAGGGAAAAAAAGGGUUUGGGAAAGUAUUAUGUUACGCCGUUCGGAUCUGCAC | -0.498
CAAGUCCUGUGCUACACAUCGUAUGUACCGAAUCGGUUUUUUUGGAGGAAAAAGGAAAGUAUUAUGUUACGCCGUUCGGAUCUGCACUUC | -0.509
AAGUCCUGUGCUACACAUCGUAUGUACCGAAUCGGGGCCCGGGGCCCGGGGCCCGGGAAAGUAUUAUGUUACGCCGUUCGGAUCUGCACU | -1.27
UCCUGUGCUACACAUCGUAUGUACCGAAUCGGGAAAAAAAGGGUUUGGGUUUUUUUGGGAAAGUAUUAUGUUACGCCGUUCGGAUCUGCA | -0.324
CCUCAAGUCCUGUGCUACACAUCGUAUGUACCGAAUCGGGGUGGGGUGGUGGGAAAGUAUUAUGUUACGCCGUUCGGAUCUGCACUUCCA | 0.991
UGGGAGGUGGAUUUUGUUUUUUUUUUUAGCUCAUUUCCAGGGGUGGGAAUUUUUUUUUAAUAUGUGUCAUGAAUAAAGUUGUUUUUGAAA | 0.314

Block 4 — technique: protein binding microarray; form: double-stranded DNA, one strand shown; matrix: in vitro; tested at: not given; reference: not given; reading: higher = stronger binding
Target: Histone acetyltransferase KAT6A, winged helix 1, GST fusion (KAT6A, Homo sapiens, UniProt Q92794, residues 1-85)
Setting: 8-mer, flanks averaged, mean of 2 arrays, mostly near background
Residues (chain): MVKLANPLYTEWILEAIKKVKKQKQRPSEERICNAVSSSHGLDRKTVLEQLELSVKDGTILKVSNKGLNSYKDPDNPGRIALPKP
Sequence | E-score
ATTGCAGC | -0.0272
ATAAGGTG | -0.107
GATGAGTA | -0.282
GCGATGAC | 0.217
AGCTCGAC | -0.126
ACGAAACA | -0.0996
CGCGATGA | 0.202
ACCTGAGG | -0.0319
CCCTGAAG | 0.0076
GGCTTGTA | -0.0222
ATGAATGC | 0.0135
TAGTATCA | -0.11
ACCCAATC | -0.209
AGTCACTA | -0.0827
GGTTTTTA | -0.149
CTCCACAC | -0.0885

Block 5 — technique: DHFR PCA, deep sequencing; matrix: yeast; with: (+)-ABA 0.0091 µM; reference: wild-type fitted maximum; reading: higher = stronger binding
Target: ABI1, truncated, D143A, DHFR fusion (Arabidopsis thaliana)
Setting: methotrexate growth selection, single substitutions
Parent: PYL1, truncated, DHFR fusion (Arabidopsis thaliana); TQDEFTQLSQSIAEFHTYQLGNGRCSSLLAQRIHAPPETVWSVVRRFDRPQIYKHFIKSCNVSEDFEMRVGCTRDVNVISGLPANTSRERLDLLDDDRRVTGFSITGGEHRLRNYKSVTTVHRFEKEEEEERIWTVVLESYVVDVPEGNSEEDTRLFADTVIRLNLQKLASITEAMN
Change | relative binding score [%]
S27H | 1.21
E127F | 20
D153S | -1.98
C72N | 6.42
L20K | 40.5
T39S | 6.71
G23Y | 0.568
I133V | 59.2
N77M | 41.3
L166C | -4.19
T160F | 55.3
A175N | 26.3
T135A | 0.968
E129T | 24.3
N149R | 11
I105H | 3.22
L156I | 17.7
G102S | 0.63
A30V | 10.6
E64L | 6.4
D75W | 18.7
I52R | 6.62
T119W | -4.56
K54G | -2.33
